Assay results collected from several papers.
Parts stem from different laboratories: compare values within a part only.

Sample 1
Target: Interferon regulatory factor 3, full length, phosphomimetic (IRF3, Homo sapiens, UniProt Q14653, residues 1-427, S386D/S396D/S398D/S402D/T404D/S405D)
Technique: protein-binding microarray
Form: double-stranded DNA, one strand shown
Medium: in vitro
Concentration: 2540 nM top
Setting: 60-bp whole probe
Together with: salmon DNA 0.4 mg/ml
Relative to: random background probes
Direction: higher = stronger binding
Constant ends, left off below: GCCTAGCAC … GTCTTGATTCGCTTGACGCTGCTG
Residues (chain): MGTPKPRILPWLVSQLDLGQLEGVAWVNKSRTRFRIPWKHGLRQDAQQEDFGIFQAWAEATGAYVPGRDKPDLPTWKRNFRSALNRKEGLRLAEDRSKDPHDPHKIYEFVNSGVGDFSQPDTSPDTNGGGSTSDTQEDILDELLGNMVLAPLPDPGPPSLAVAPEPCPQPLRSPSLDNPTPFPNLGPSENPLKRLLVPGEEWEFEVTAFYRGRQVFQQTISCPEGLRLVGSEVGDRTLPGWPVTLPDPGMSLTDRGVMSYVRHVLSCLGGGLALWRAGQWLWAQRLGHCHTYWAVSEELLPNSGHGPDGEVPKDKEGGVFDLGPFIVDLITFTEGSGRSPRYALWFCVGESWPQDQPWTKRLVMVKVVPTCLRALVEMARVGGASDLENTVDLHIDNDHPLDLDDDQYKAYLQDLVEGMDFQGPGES
`TTAGGTTTCGGTTCCGTTTAGTGCTAG` — result for “fitted relative affinity”: 10.6 z-score.
`GAACATATTTGTTTCCATTTGTGCTAG` — result for “fitted relative affinity”: 5.47 z-score.
`GACGAACTGGGTTTCGAGACGTGCTAG`: “fitted relative affinity” 0.829 z-score.
For `TTAGATCTCAGTCTTGATTAGTGCTAG`, “fitted relative affinity” read 0.258 z-score.
`TTAGGGCTGCTTTTCCTTTAGTGCTAG` — result for “fitted relative affinity”: 0.64 z-score.
Under “fitted relative affinity”, `GAGGGTCTCCTTTTCCTGACGTGCTAG` is recorded as 3.43 z-score.
`TTAAGACTGGGGACTGGGTTAGTGCTA`: “fitted relative affinity” -0.846 z-score.

Sample 2
Target: Prothrombin, mature alpha-thrombin (F2, Homo sapiens, UniProt P00734)
Technique: aptamer microarray, sandwich
Form: DNA with 2'F-ANA
Medium: in vitro
Concentration: 200 nM
Setting: whole 15-mer aptamer, many near background
Together with: Cy3 exosite-II aptamer, 400 nM
Direction: higher = stronger binding
Oligonucleotide: GGTTGGTGTGGTTGG
Under “mean fluorescence intensity”, `2'F-ANA at 3 5 6 8 11 14 15` is recorded as 55.7 a.u.
`2'F-ANA at 1 2 4 6 7 11`: “mean fluorescence intensity” 85 a.u.
Under “mean fluorescence intensity”, `2'F-ANA at 1 2 3 5 6 7 8 9 11 13` is recorded as 56.4 a.u.
Under “mean fluorescence intensity”, `2'F-ANA at 3 5 6 7 10 11 13 14 15` is recorded as 49.5 a.u.
Under “mean fluorescence intensity”, `2'F-ANA at 1 2 4 5 7 9 10 13 15` is recorded as 47.2 a.u.

Sample 3
Target: Sal-like protein 4, full length isoform B (SALL4, Homo sapiens, UniProt Q9UJQ4-2, residues 1-616)
Technique: universal PBM
Form: double-stranded DNA, one strand shown
Medium: in vitro
Concentration: not given
Setting: 8-mer, flanks averaged, mean of replicates
Direction: higher = stronger binding
With `CGTTGCGA` the E-score was -0.0841.
`ACATCGTC` has an E-score of 0.0325.
For `ATAGATGC`, the E-score was 0.0776.
For `CAGTAATG`, the E-score was 0.2.
With `ACGGACTC` the E-score was -0.117.
For `AGTGTTGG`, the E-score was -0.109.
With `GATCCAGC` the E-score was -0.305.
For `AACTGTGA`, the E-score was 0.0367.

Mixed results
`PhoQ, residues 284 288 289 292 302 303 TAVSDG` gave a fold induction of 1.24 (PhoP, residues 12 14 15 18 19 NQAHL (Escherichia coli, UniProt P23836); Sort-seq, measured: YFP reporter; E. coli; PhoQ-PhoP variant library, together with: 10 µM Mg2+; relative to: high Mg2+ state, higher = stronger signaling).

Repeated from above (sample 2):
Under “mean fluorescence intensity”, `2'F-ANA at 1 2 3 5 6 7 8 9 11 13` is recorded as 56.4 a.u.
Under “mean fluorescence intensity”, `2'F-ANA at 3 5 6 7 10 11 13 14 15` is recorded as 49.5 a.u.
Under “mean fluorescence intensity”, `2'F-ANA at 1 2 4 5 7 9 10 13 15` is recorded as 47.2 a.u.
